# Measured values gathered from unrelated publications.
# Each numbered part is a random draw from the data of one study; scales do not carry over between parts. Positions count from the first letter of the parent shown.

# Sample 1
# Target: ABI1, truncated, D143A, DHFR fusion (Arabidopsis thaliana)
# Technique: DHFR PCA, deep sequencing
# Medium: yeast
# Setting: methotrexate growth selection, single substitutions
# With: (+)-ABA 1.4 µM
# Baseline: wild-type fitted maximum
# Reading: higher = stronger binding
# Parent: PYL1, truncated, DHFR fusion (Arabidopsis thaliana); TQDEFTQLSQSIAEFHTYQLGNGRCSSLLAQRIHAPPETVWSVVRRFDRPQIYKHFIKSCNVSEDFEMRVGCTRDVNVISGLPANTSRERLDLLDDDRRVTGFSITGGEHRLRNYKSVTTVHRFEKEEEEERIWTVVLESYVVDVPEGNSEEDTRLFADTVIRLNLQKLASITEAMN
Variant,relative binding score [%]
F66V,22.1
N61F,55.4
R113H,50.9
R98S,14.6
R132P,77.3
H110N,68.1
K126L,61.5
I162M,7.72
L169P,4.22
F47H,-4.35
N61H,72
T39I,45.3
R32H,46.5
Y141H,16.7
L93C,35.5
M68H,23.6
R45F,-13

# Sample 2
# Target: RING finger protein unkempt homolog, zinc fingers 1-6, GST-SBP tag (UNK, Homo sapiens, UniProt Q9C0B0, residues 30-357)
# Technique: RNA Bind-n-Seq
# Molecule type: RNA
# Medium: in vitro
# Concentration: not given
# Setting: RNA with constant flanks, ends assumed
# Baseline: input RNA pool
# Reading: higher = stronger binding
# Constant ends, left off below: GGGAGUUCUACAGUCCGACGAUC … CAACAGAGGAUUGAGCAUCA
# Construct (chain): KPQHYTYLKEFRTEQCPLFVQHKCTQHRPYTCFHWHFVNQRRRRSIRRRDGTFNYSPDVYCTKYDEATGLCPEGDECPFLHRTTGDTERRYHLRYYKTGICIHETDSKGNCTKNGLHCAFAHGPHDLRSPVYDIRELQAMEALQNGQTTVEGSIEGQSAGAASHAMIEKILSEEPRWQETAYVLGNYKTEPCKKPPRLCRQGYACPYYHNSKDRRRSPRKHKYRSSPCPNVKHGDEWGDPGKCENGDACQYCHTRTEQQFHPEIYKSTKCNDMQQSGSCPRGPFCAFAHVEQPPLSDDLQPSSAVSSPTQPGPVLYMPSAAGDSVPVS
Strand,bound/input enrichment
CCGUAGGGGCACAGAGAGCUUAGAUCACCUUGCUGGUCUCUCACAUUAUUACCAUGCUGAUACCCGCUAUAGACACUUCCCCAAGUCUGAAAAGUAUAGCAUCAGUAGACUCACCCUGGA,0.551 ratio
ACAGUAGGAAAGGCCAAGGGCAAAUUGUGGCUCUUUGGAAAGAAGCCAAAGGGCCCAGCACCCGAAGAUUUCAGUCAUCUGCCACCAGAACAGAGACGUAAAAAACUACAGCAGCGCAUU,0.175 ratio
UUGUUUUGUUUUGUUUUUGAGACAGAGUCUUGCCCAGGCUUAAACUUCAGCUCCACCUGCCUCCGCCUGUUGGGAUUCAUUUUCUUUAACUCACAAAGAGUAUGCAGAGUAAGCCCCAGU,0.16 ratio
GAGCCCUAUGGCUUCCGCUCCUCAAUGCUAUUUGAUACAAUGCAACAUCAUCUGGCCUUGAACCGAGAUUUGACUACAUCUAGUGUGGAGAAAGACAGCGGAGGGAAGACACCCGGAGAC,0.12 ratio
AACCUCACAGAUGAAACAGGAGUAUCUGCUGUUCAGUUUGGAAACUCCUCUACGUCAGUAUCCGCUACGUUAGCUGCCUUAGCUGAAGCUUCUGCCCCAUUGUCCAAUUCUUCAGAAACU,0.133 ratio
AGGCACUGGGAGGCUGUUUCAGGAAAGUGAGACUCAAGAGGAAGACAGAAAAGGUUGUAACGCCGAGGAAGUGAGACUGGUGAAUUGGUUUGAUUUUUUUCACAUCUAGAUGGCUGUCAU,0.567 ratio
UACAAGGUCCAGGAAAAUAUAUAGACUACAGAUGUCCCAGGCUUUGAGUAAGCGCUGAUUUCCGGAGAUGGGUAAUUAACCCAAGUUCUCCAACAUUUUUCACAUAAGAAAUGUGUUUUG,0.181 ratio
GGGGGUGAUGGUCCUAUGUGUCGCCCAGUAAUUCUGUUGCCGGAAGAUACCCCCCCCUUCUCCGAGCUUAAAGGAUCACGCCAUCCUUGCAUUACGAAGACUUUUUUUGGAGAUGAUUUU,0.44 ratio
UGGUAAAAUUCUGCUCUCAUGAACAAGGAGUCACUUCAUAGAUUGUGAUCAACAGCUUGGCCGUACUUGCUGUAAGGGAUUGAGUUGCGCCAGACUUUGUCUCUUUAUUCUUGUGCAGUG,0.228 ratio
CUAACGAACUUUACACUCCUGAUGCCAGCAGUAUCCGUUGGAAAUGUUGGCCAGCUUGCAACCGAUCUGAUUAUUUCUACACUGAACAUGUGUAAGAUUGGUUAUUUCUAUACUGAUUGC,0.0871 ratio
GAUAUCCAUUUGAAUGAAAUGGCUGGAGACAUCUUGGUUUUUCUGACUGGCCAGUUUGAAACCGAAAAAAGUUGUGAGUUACUUUUUCAGAUGGCAGAGUCUGUUGAUUAUGAUUAUGAU,0.187 ratio

# Sample 3
# Target: RNA binding protein fox-1 homolog 2, RRM domain, GST-SBP tag (RBFOX2, Homo sapiens, UniProt O43251-10, residues 100-194)
# Technique: RNA Bind-n-Seq
# Molecule type: RNA
# Medium: in vitro
# Concentration: 365 nM
# Setting: natural RNA segment, single round, ends assumed
# Baseline: no-protein control
# Reading: higher = stronger binding
# Constant ends, left off below: GGGAGUUCUACAGUCCGACGAUC … UGGAAUUCUCGGGUGCCAA
# Target sequence (chain): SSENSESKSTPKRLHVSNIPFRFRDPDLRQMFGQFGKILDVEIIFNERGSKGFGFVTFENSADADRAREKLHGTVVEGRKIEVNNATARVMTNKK
Strand,RBNS enrichment (R)
ACCUUCACUGUUUUGAGGGGGGCUGAGACAAGACACCCCCGCUUCUAGGUAUCUUCUAGAGCAGUGAUUCUCAACCUUGCUAAUGCUGUGACCCUUUAAUACAUACAGUU,0.536
GAACCCACCAGGAGCACCACAGAGUCCUCCUCUUGGAAGGCAGAACUCCCUGAAAUCUGGAAUCAGGGUGGAAACAGCCUGUUUUUCCCAUUUAAACAGGAGUCCUCUUC,0.283
AGCUGGAGGGUCAGGAACUGUUACCUUCUUUCCCCUUGGCAUUAAUAAAUUUAAGUUAAUCCUUUUCACUCUUCCUUUGUUCUAUGUUUGCUCAAACCCAGUGUAUUGAU,1.02
AGACAGUUCAGAUUACCAGGAUAAUCCCAAGCAGUAUCUCCAGUCUCGGCUGGUAGUGGCCCAGAUCUAUGCAGGCCCAUUAGCACACAUUCAAACCUUCCGGGGCUGUG,0.371
UUAAGUGCAAAACAUGUAAAUUUGGUUCCCAGAGUGGGCCAAUCUCUCUGUUCUUGUUAUCUUAGCCAACUAUACUGAUACCUACAGCUACAGAAAGCAGGACUAGGAAC,0.27
UCUCUUUCGUGCUGCAUGCACAUUUAUCCAACACUCACGGGUUGUUUGGGAAAAAGUACCAGCAAUGAUGUCGAUGUUAAUAAUACUUCAUAAUUGAUAUCUUAUAGCUU,0.558
GAUCCCCCUAGUUCAUCUUAAAUUUGUCCGUGGCCCUGGCAAGAUAGCGUACACAAGAUUCCAUGACUCCAGAGCAUCUUGAAGAAACAUACAUAUUUUGAAAGAGGGGA,0.758
UAUUAACUUAAAUAGCCAUUGAGGAGUUAGAAGAUGAAUUGUUCAUGAAGUCGGUGUUACAUAAAAGUAGGUGAUAUGUAAGUUUUCUGAUAACAAGGUUCUAAUAGUGU,1.11
CCUUUCCUCAGUGUUCAUGCAAAAAUUAAAUGUCUUUUUUCAGCAUACUGACUCCAGGUGUAGUUACAUCUCAGUGCUGUCUUGAGUAUAUAUUUUAUCUCUUAUACCUG,0.322
AAGCAAACCAGUUAAUCUCAGUGUAAUUUCAUUCAGCUUUUCAUGUGCUUUGUAUUCAAUCAGAAUAAGCUUAGUCAACCUGGCAGGUAAAUAUUGGUUCAAUUUUUGUU,0.516
AACAAAUACUGAAAAUCCCAAGGAACCUGGGAGAAUCUGAAAAUGAACUCCAGUCUUCAGCUCGAAGUUGCCUCUAGGGUUCCUCCUGGUCACCCCCGGGCCCAGCCUGG,0.337
UUCCCGCGCACUGAAAGGGCAGAGUAGGCCGAAGGGUCCAAGGGCCAGACUGCCUCACCCUCUGCCCUAAUCAGCAGGGUGGGCCUGCCUUUUGCUAAGCGAUCUCUAUG,0.207

# Sample 4
# Target: CREB3, bZIP domain (human)
# Technique: DHFR protein complementation
# Medium: yeast
# Setting: single substitutions, most at no-binding floor
# Baseline: wild-type JUN-FOS pair
# Reading: higher = stronger binding
# Parent: JUN, bZIP domain (human); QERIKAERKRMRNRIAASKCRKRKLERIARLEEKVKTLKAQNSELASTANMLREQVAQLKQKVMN; partner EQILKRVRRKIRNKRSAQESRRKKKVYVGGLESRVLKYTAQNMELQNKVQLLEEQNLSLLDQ
Variant,binding fitness [natural log]
E54N,-1.5
Q55H,-1.54
N42M,-1.43
N42D,-1.52
I28C,-1.51
V35K,-1.51
N42H,-1.42
T37H,-1.5
L38M,-1.49
E33L,-1.48
Q55I,-1.55
V56W,-1.51
K39D,-1.52
K36P,-1.52
E32M,-1.14
L45E,-1.5
A40E,-1.34
S47Q,-1.21
M51P,-1.54
K36D,-1.49
S47Y,-1.45
L31P,-1.54
L38T,-1.53
T37W,-1.48
L31Y,-1.43

# Sample 5
# Target: CCNF, cyclin fold, Cln2 fusion (human)
# Technique: yeast growth competition, sequencing
# Medium: yeast
# Setting: strong parent motif
# Baseline: not given
# Reading: higher = stronger binding
# Parent: ORC1 docking peptide (human); PRARKRLELGNLG
Variant,normalised enrichment score
PRARKRLLLGNLG [E8L],2.77
PVARKRLELGNLG [R2V],2.96
PRARKRLELGNIG [L12I],3.53
PRARKQLELGNLG [R6Q],0.887
PRARKRHELGNLG [L7H],0.428
PCARKRLELGNLG [R2C],2.73
PRARKRLVLGNLG [E8V],4.48
PRARKRLTLGNLG [E8T],0.506
PRARKRLELGLLG [N11L],3.91
DRARKRLELGNLG [P1D],4.06
PNARKRLELGNLG [R2N],4.39
PRARKMLELGNLG [R6M],2.36
PRARKRLELFNLG [G10F],2.63
PRARIRLELGNLG [K5I],1.36
PRARMRLELGNLG [K5M],0.514
PRARKRLELGNKG [L12K],2.21
PRAGKRLELGNLG [R4G],1.37
PRARKRLELHNLG [G10H],2.55
PRARKRLILGNLG [E8I],4.03
PRALKRLELGNLG [R4L],1.37
VRARKRLELGNLG [P1V],3.38
PRARKRLELGNLE [G13E],4.97
PRARKRLELVNLG [G10V],2.34
PRARKRIELGNLG [L7I],0.875
PRARKRLELGNLQ [G13Q],2.59

# For quick reference, copied from above (sample 4):
Variant,binding fitness [natural log]
N42D,-1.52
I28C,-1.51
V35K,-1.51
N42H,-1.42
T37H,-1.5
L38M,-1.49
E33L,-1.48
Q55I,-1.55
